Published values pooled from the literature.
Each line is one published result; not all experiments were run side by side. Converted amounts (≈) assume the structure as drawn.

`CCCC(=O)NCC(=O)N[C@@H](CC(C)C)C(=O)N[C@@H](CC(C)C)C(=O)N[C@@H](CCCCN)C(=O)N[C@@H](CCCNC(=N)N)C(=O)N[C@H](C(=O)N[C@@H](CCCCN)C(=O)N[C@H](C(=O)N[C@@H](CC(C)C)C(=O)N[C@@H](CC(C)C)C(=O)NCCCC[C@H](NC(=O)[C@H](CC(C)C)NC(=O)[C@H](CC(C)C)NC(=O)[C@@H](NC(=O)[C@H](CCCCN)NC(=O)[C@@H](NC(=O)[C@H](CCCNC(=N)N)NC(=O)[C@H](CCCCN)NC(=O)[C@H](CC(C)C)NC(=O)[C@H](CC(C)C)NC(=O)CNC(=O)CCC)[C@@H](C)CC)[C@@H](C)O)C(N)=O)[C@@H](C)O)[C@@H](C)CC` — result for “geometric mean MIC”: 6.06 µM (five bacterial species; bacterial growth).
For `CN(CC(=O)N1CCCC2=CC3CC(CN4CCCCC34)C21)c1ccc(Cl)cc1` (stereo not shown), the EC50 was 85.6 µM (vesicular stomatitis virus; pseudovirus entry; VSV G pseudovirus).
`CC/C=C\C/C=C\C/C=C\C/C=C\C/C=C\C/C=C\CCC(=O)Nc1ccn(C2OC(CO)C(O)C2(F)F)c(=O)n1` (stereo not shown) has a CC50 of 67.5 µM (HCC 2998; NCI60 screen).
For `CNc1nc(SC)nc2ccccc12`, the MIC was over 64 µM (Moraxella catarrhalis; microbial growth, broth dilution; 1502).
`Cc1cc(C)cc(NC(=O)N2CCCC3=CC4CC(CN5CCCCC45)C32)c1` (stereo not shown) has an EC50 of 94.9 µM (vesicular stomatitis virus; pseudovirus entry; VSV G pseudovirus).
For `CC(C)C[C@H](NC(=O)[C@H](CC(N)=O)NC(=O)[C@H](CCCCN)NC(=O)[C@H](CC(C)C)NC(=O)[C@H](Cc1ccccc1)NC(=O)CNC(=O)[C@H](CC(C)C)NC(=O)[C@@H](N)Cc1ccccc1)C(=O)N[C@@H](Cc1ccccc1)C(N)=O`, “HCV RNA reduction” read 30% (hepatitis C virus; Huh-7.5.1, JFH-1; concentration not given, added after infection, with: 50 µM chloroquine; relative to: chloroquine alone).
`CC[C@H]1OC(=O)[C@H](C(C)C)NC(=O)[C@H](C)OC(=O)[C@@H](C(C)C)NC(=O)[C@@H](C(C)C)OC(=O)[C@H](C(C)C)NC(=O)[C@H](C)OC(=O)[C@@H](C(C)C)NC(=O)[C@@H](C(C)C)OC(=O)[C@H](C(C)C)NC(=O)[C@H](C)OC(=O)[C@@H](C(C)C)NC1=O` — result for “G2/M phase cells”: 15.7% (U-251; PI staining flow cytometry; 0.8 µM, 12 h).
`CCCC(=O)NCC(=O)N[C@@H](CC(C)C)C(=O)N[C@@H](CC(C)C)C(=O)N[C@@H](CCCCN)C(=O)N[C@@H](CCCNC(=N)N)C(=O)N[C@H](C(=O)N[C@@H](CCCCN)C(=O)N[C@H](C(=O)N[C@@H](CC(C)C)C(=O)N[C@@H](CC(C)C)C(=O)NCCCC[C@H](NC(=O)[C@H](CCCCNC(=O)[C@H](CC(C)C)NC(=O)[C@H](CC(C)C)NC(=O)[C@@H](NC(=O)[C@H](CCCCN)NC(=O)[C@@H](NC(=O)[C@H](CCCNC(=N)N)NC(=O)[C@H](CCCCN)NC(=O)[C@H](CC(C)C)NC(=O)[C@H](CC(C)C)NC(=O)CNC(=O)CCC)[C@@H](C)CC)[C@@H](C)O)NC(=O)[C@H](CC(C)C)NC(=O)[C@H](CC(C)C)NC(=O)[C@@H](NC(=O)[C@H](CCCCN)NC(=O)[C@@H](NC(=O)[C@H](CCCNC(=N)N)NC(=O)[C@H](CCCCN)NC(=O)[C@H](CC(C)C)NC(=O)[C@H](CC(C)C)NC(=O)CNC(=O)CCC)[C@@H](C)CC)[C@@H](C)O)C(N)=O)[C@@H](C)O)[C@@H](C)CC`: “geometric mean MIC” 3.48 µM (five bacterial species; bacterial growth).
`O=C1/C(=N\NC(=S)NN=Cc2cccs2)c2ccccc2N1Cc1ccccc1` gave an EC50 of over 20 µM (vesicular stomatitis virus; viral replication; HEL).
`[Cl-].[Cl-].[Mn+2].c1ccc(CN2CCCNCCN(Cc3ccccc3)CCCNCC2)cc1` has an IC50 of 12.4 µM (Leishmania donovani; THP-1-derived macrophages, intracellular amastigotes).
The EC50 of `O=S(=O)(c1cc(Cl)cc(Cl)c1)N1CCCC2=CC3CC(CN4CCCCC34)C21` (stereo not shown) is reported as 38.5 µM (vesicular stomatitis virus; pseudovirus entry; VSV G pseudovirus).
For `Nc1ccc(/C=C/C(=O)N2CCc3c(oc4c(-c5ccc(F)cc5)cc(-c5ccc(C(=O)N6CCC(F)(F)CC6)cn5)cc34)C2)cn1`, “tumour growth inhibition” read 57.3% (mice, MIA PaCa-2 xenograft; intraperitoneal, 100 mg/kg once daily, 20 days).
With `Cc1cc(Oc2nc(N3CC[C@@H](c4ccncc4)C3)ncc2F)[nH]n1` the MIC90 was 0.0086 µM (≈ 0.00293 µg/mL) (Mycobacterium tuberculosis; H37Rv).
The EC50 of `CCC(=C(c1ccc(Cl)cc1)c1ccc(OCCCN(C)C)cc1)c1ccc(Cl)cc1` is reported as 0.32 µg/mL (influenza A virus H1N1; cytopathic effect, visual CPE; MDCK).
With `C[C@@](O)(C(F)F)[C@H](NC(=O)c1ccc(C#CC#CC2CC2)cc1)C(=O)NO` the Vd was 7.7 L/kg (mouse, plasma; intravenous, 40 mg/kg).
For `CN[C@](C)(C[18F])C(=O)O`, the tracer uptake was 2.1 %ID/g (MDA-MB-468 tumour model; host not given, bone; 15 min, tumour-bearing).
The EC50 of `COc1ccc(CC(C)=C(c2ccc(Cl)cc2)c2ccc(OCCN3CCCCC3)cc2)cc1` is reported as over 3.2 µg/mL (influenza A virus H1N1; cytopathic effect, visual CPE; MDCK).
`O=C(CNc1ccc(OC(F)(F)F)cc1)N1CCCC2=CC3CC(CN4CCCCC34)C21` (stereo not shown) has an EC50 of 47.6 µM (vesicular stomatitis virus; pseudovirus entry; VSV G pseudovirus).
`Cc1cccc(-c2nc(Nc3ccncn3)c3c(C)csc3n2)n1` has an MIC of 0.3 µM (≈ 0.1 µg/mL) (Mycobacterium tuberculosis variant bovis BCG; microbial growth; BCG).

For quick reference, copied from above:
With `C[C@@](O)(C(F)F)[C@H](NC(=O)c1ccc(C#CC#CC2CC2)cc1)C(=O)NO` the Vd was 7.7 L/kg (mouse, plasma; intravenous, 40 mg/kg).
